Results from different studies.
Each numbered part is a random draw from the data of one study; scales do not carry over between parts. Positions count from the first letter of the parent shown.

Study 1
Target: Prothrombin, mature alpha-thrombin (F2, Homo sapiens, UniProt P00734)
Technique: aptamer microarray, sandwich
Molecule type: DNA with 2'F-ANA
Medium: in vitro
Concentration: 200 nM
Setting: whole 15-mer aptamer, many near background
With: Cy3 exosite-II aptamer, 400 nM
Direction: higher = stronger binding
Strand: GGTTGGTGTGGTTGG
| Modification | mean fluorescence intensity |
| --- | --- |
| 2'F-ANA at 1 2 4 9 14 | 45.2 a.u. |
| 2'F-ANA at 1 2 4 6 10 11 14 | 54.2 a.u. |
| 2'F-ANA at 1 3 6 7 10 14 15 | 56.7 a.u. |
| 2'F-ANA at 3 7 8 11 12 15 | 1210 a.u. |
| 2'F-ANA at 1 2 3 5 6 10 11 13 | 110 a.u. |
| 2'F-ANA at 1 2 5 9 10 11 12 | 52.5 a.u. |
| 2'F-ANA at 2 3 4 5 6 9 10 11 12 13 | 53.7 a.u. |
| 2'F-ANA at 7 8 9 11 12 14 15 | 250 a.u. |
| 2'F-ANA at 2 3 12 14 15 | 496 a.u. |
| 2'F-ANA at 1 2 3 4 6 7 8 9 11 13 15 | 109 a.u. |
| 2'F-ANA at 1 2 3 4 5 6 7 11 12 15 | 80.6 a.u. |
| 2'F-ANA at 1 2 3 5 6 9 10 11 13 14 | 53.7 a.u. |
| 2'F-ANA at 1 2 4 6 8 12 13 | 221 a.u. |
| 2'F-ANA at 1 2 3 7 8 9 10 11 12 13 | 80.1 a.u. |
| 2'F-ANA at 4 5 6 7 8 12 15 | 135 a.u. |
| 2'F-ANA at 1 4 5 6 7 8 9 13 15 | 48.4 a.u. |
| 2'F-ANA at 1 2 3 4 5 6 7 9 10 11 14 | 49.4 a.u. |
| 2'F-ANA at 1 4 5 8 10 11 12 13 15 | 51.9 a.u. |
| 2'F-ANA at 8 13 14 15 | 199 a.u. |
| 2'F-ANA at 2 4 5 7 8 10 12 13 14 | 46 a.u. |
| 2'F-ANA at 2 3 6 10 15 | 338 a.u. |
| 2'F-ANA at 4 9 10 12 13 | 108 a.u. |
| 2'F-ANA at 1 2 3 8 9 11 12 13 15 | 357 a.u. |

Study 2
Target: CCND3, cyclin fold, Cln2 fusion (human)
Technique: yeast growth competition, sequencing
Medium: yeast
Setting: weak parent motif
Reference: not given
Direction: higher = stronger binding
Starting sequence: E2F8 docking peptide (human); FVPQRKLEVSTED
| Substitution | normalised enrichment score |
| --- | --- |
| FVPQKKLELSTED [R5K V9L] | 0.0531 |
| FVPQRKAEVSTED [L7A] | 0.117 |
| FVPQRKLEASTED [V9A] | 0.182 |
| FVPARKLEVSTED [Q4A] | -0.0188 |
| FVPQKKLEVSTED [R5K] | 0.12 |
| FVPQRKLEVSTEA [D13A] | 0.102 |
| FVPQRKLEVATED [S10A] | 0.13 |
| FVPQAKLEVSTED [R5A] | 0.0563 |
| FVPQRKLEVSAED [T11A] | 0.116 |
| FVPQAKAEVSTED [R5A L7A] | -0.175 |

Study 3
Target: ABI1, truncated, D143A, DHFR fusion (Arabidopsis thaliana)
Technique: DHFR PCA, deep sequencing
Medium: yeast
Setting: methotrexate growth selection, single substitutions
With: (+)-ABA 0.39 µM
Reference: wild-type fitted maximum
Direction: higher = stronger binding
Starting sequence: PYL1, truncated, DHFR fusion (Arabidopsis thaliana); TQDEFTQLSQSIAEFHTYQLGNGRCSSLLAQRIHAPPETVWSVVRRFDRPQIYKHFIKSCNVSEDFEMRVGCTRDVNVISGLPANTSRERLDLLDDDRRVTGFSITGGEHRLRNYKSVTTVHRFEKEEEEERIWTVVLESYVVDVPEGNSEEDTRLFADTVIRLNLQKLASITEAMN
| Substitution | relative binding score [%] |
| --- | --- |
| F124V | 48.2 |
| T135M | -3.07 |
| T1C | 44.3 |
| T17D | -2.99 |
| N177Q | 22.7 |
| R155Y | -0.557 |
| E38H | 8.68 |
| L164A | 44.3 |
| L94R | 5.02 |
| I79F | 35.6 |
| C60D | 1.09 |
| L93E | -5.41 |
| E38I | -7.4 |
| L138Y | -2.66 |
| L8K | -11.2 |

Study 4
Target: Histone acetyltransferase KAT6A, both winged helices, GST fusion (KAT6A, Homo sapiens, UniProt Q92794, residues 1-181)
Technique: protein binding microarray
Molecule type: double-stranded DNA, one strand shown
Medium: in vitro
Concentration: not given
Setting: 8-mer, flanks averaged, mean of 2 arrays, mostly near background
Reference: not given
Direction: higher = stronger binding
Residues (chain): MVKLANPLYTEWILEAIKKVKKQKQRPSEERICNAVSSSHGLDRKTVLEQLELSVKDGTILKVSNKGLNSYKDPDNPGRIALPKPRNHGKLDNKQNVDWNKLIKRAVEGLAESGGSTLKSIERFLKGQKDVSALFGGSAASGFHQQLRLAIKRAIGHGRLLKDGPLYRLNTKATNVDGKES
| Strand | E-score |
| --- | --- |
| AATTCCGC | 0.145 |
| AGCCCACT | -0.195 |
| TGCTTAAA | -0.147 |
| GAAGTTAA | -0.071 |
| ATTAGATG | -0.107 |
| AGCATGAC | -0.0723 |
| ACTGCAAT | -0.0652 |
| AAGACGCG | 0.195 |
| CATTGGGA | -0.253 |
| GGCGCTTA | 0.263 |
| ACTTAAAG | -0.205 |
| GCGCGGGA | 0.333 |
| GGAAGGAC | -0.118 |
| ATTGGTGG | -0.16 |
| GGGAAAGA | -0.207 |
| GCCAACCC | -0.00598 |
| CCCGGTTA | 0.2 |
| ATCTCGGG | -0.0285 |
| ATCGGTAC | 0.0483 |
| ATTGTGGC | -0.0133 |
| CCTAAACA | -0.0353 |
| GTCTCGAA | -0.104 |
| ACACTTAC | 0.0901 |
| ATAAGATA | -0.129 |
| GTCAACGA | -0.0842 |

Study 5
Target: Interferon regulatory factor 5, full length, phosphomimetic (IRF5, Homo sapiens, UniProt Q13568-2, residues 1-514, K96S/S451D/S453D/S456D/S462D)
Technique: protein-binding microarray
Molecule type: double-stranded DNA, one strand shown
Medium: in vitro
Concentration: 250 nM
Setting: 60-bp whole probe
With: salmon DNA 0.4 mg/ml
Reference: random background probes
Direction: higher = stronger binding
All sequences stand within: GCCTAGCAC … GTCTTGATTCGCTTGACGCTGCTG
| Strand | log fluorescence [z-score] |
| --- | --- |
| GACCAACTGAGACTGGAGACGTGCTAG | -0.193 |
| GACGGACTGGGTAACGGGACGTGCTAG | -0.376 |
| TCAGTAAGCAAAAATGAACTGTGCTAG | 0.24 |
| TCAAGTCCCGAGAATGGTACTGTGCTA | -0.238 |
| TTAGGCCTCGGTTTCGGTTAGTGCTAG | 8.09 |
| ATCTCTTTCCTTACTTCCCAGTGCTAG | 1.4 |
| GACGGTATACTTCTCCTGACGTGCTAG | 0.0728 |
| TCAGCTTTGCCTTTTGCACTGTGCTAG | -0.0178 |
| GTAGGACTGGACTTTCGGTTAGTGCTA | 9.04 |
| GACGAACTGAGGATCGAGACGTGCTAG | -0.329 |
| CACGATATCAGTTTCGAGACGTGCTAG | 6.44 |
| TTAGGTATCGACACTGGGGTAGTGCTA | 2.11 |
| AGCAGGGGCGCAGGTAGGTGGTGCTAG | -0.685 |
| TTAGATATCAGTATCGAGTAGTGCTAG | 3.96 |
| TTTGGACTGGGGTATCGGTTAGTGCTA | 2.57 |
| GACGAACTGGGGACTGGAGAGGTGCTA | -0.5 |
| GACGGTATCCTACTGCGGACGTGCTAG | -0.111 |
| GACGGTATCGGAACTGGGGACGTGCTA | 1.59 |
| GACGGTCTCCTACTGCTGTCGTGCTAG | -0.234 |
| GACGGTTCCCTATTCCTGACGTGCTAG | 0.176 |
| TAAGATCTCAGTTTCGATTAGTGCTAG | 8.81 |
| GACGGTTTCCTTCTCATGACGTGCTAG | 1.08 |
| GACGATCACAGTATCGAGACGTGCTAG | 1.55 |
| TCAAGTTTCTCTTTCCTACTGTGCTAG | 4.06 |
| GGCGAACTGGGGACTGGAGACGTGCTA | -0.866 |

Study 6
Target: PABPC1L2, full length, GST fusion (mouse, UniProt A0ABA7IW68)
Technique: RNAcompete
Molecule type: RNA
Medium: in vitro
Concentration: 20 nM
Setting: 7-mer, probes averaged, single round
Reference: mean of 7-mers
Direction: higher = stronger binding
Construct (chain): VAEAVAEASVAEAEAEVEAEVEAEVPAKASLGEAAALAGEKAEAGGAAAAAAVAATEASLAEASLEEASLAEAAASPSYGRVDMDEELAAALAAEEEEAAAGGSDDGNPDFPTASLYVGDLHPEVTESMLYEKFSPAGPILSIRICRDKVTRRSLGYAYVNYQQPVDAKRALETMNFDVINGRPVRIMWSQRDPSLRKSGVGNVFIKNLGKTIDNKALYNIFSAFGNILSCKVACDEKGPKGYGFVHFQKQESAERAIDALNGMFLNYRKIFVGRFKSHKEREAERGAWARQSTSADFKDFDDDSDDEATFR
| Strand | 7-mer Z-score |
| --- | --- |
| AGUUGCA | -0.155 |
| CGAAUAA | 0.635 |
| CCGCGAC | -0.15 |
| UCUUAAG | -0.298 |
| GGUUUCC | -0.378 |
| GCAUUAG | -0.0844 |
| GGGUGGU | -0.00289 |
| UUCUUCU | -0.447 |
| GUAUACU | -0.175 |
| CGUGAGA | -0.238 |
| AAAGCCA | 0.767 |
| UUGGGGG | 0.224 |
| GUUUGUU | -0.507 |
| UCCCUCU | -0.32 |
| UACGCAG | -0.182 |
| CGGCAGU | -0.00833 |
| CUUAGUU | -0.229 |
| UGUACCC | -0.325 |
| CCGGAGC | -0.104 |
| GGCAUUU | 0.131 |
| UUGUCCC | -0.42 |
| AGGGGUU | 0.213 |
| UAAGUCU | -0.289 |
| UACGUAA | -0.202 |
| CGAGCAA | 0.0569 |

Excerpt of the above (study 5):
| Strand | log fluorescence [z-score] |
| --- | --- |
| GACGATCACAGTATCGAGACGTGCTAG | 1.55 |
| CACGATATCAGTTTCGAGACGTGCTAG | 6.44 |
| GACGGTATCCTACTGCGGACGTGCTAG | -0.111 |
| GACGGTCTCCTACTGCTGTCGTGCTAG | -0.234 |
| GACGAACTGGGGACTGGAGAGGTGCTA | -0.5 |
| ATCTCTTTCCTTACTTCCCAGTGCTAG | 1.4 |
| TAAGATCTCAGTTTCGATTAGTGCTAG | 8.81 |
| TTAGGCCTCGGTTTCGGTTAGTGCTAG | 8.09 |
| TTTGGACTGGGGTATCGGTTAGTGCTA | 2.57 |
| TTAGATATCAGTATCGAGTAGTGCTAG | 3.96 |
| GACCAACTGAGACTGGAGACGTGCTAG | -0.193 |
| TCAAGTTTCTCTTTCCTACTGTGCTAG | 4.06 |
| GACGGTTCCCTATTCCTGACGTGCTAG | 0.176 |
| GACGGTTTCCTTCTCATGACGTGCTAG | 1.08 |
| TCAGTAAGCAAAAATGAACTGTGCTAG | 0.24 |
| GACGGACTGGGTAACGGGACGTGCTAG | -0.376 |
| AGCAGGGGCGCAGGTAGGTGGTGCTAG | -0.685 |
